Assay results collected from several papers.
Protocols differ between the studies behind these lines.
Organism: Pseudomonas aeruginosa

For `CN[C@H](CC(C)C)C(=O)N[C@H]1C(=O)N[C@@H](CC(N)=O)C(=O)N[C@H]2C(=O)N[C@H]3C(=O)N[C@H](C(=O)N[C@H](C(=O)NCc4cn(CCCCC(=O)N[C@H](C(=O)N[C@@H](CCN)C(=O)N[C@H]5CCNC(=O)[C@H]([C@@H](C)O)NC(=O)[C@H](CCN)NC(=O)[C@H](CCN)NC(=O)[C@H](CC(C)C)NC(=O)[C@@H](CC(C)C)NC(=O)[C@H](CCN)NC5=O)[C@@H](C)O)nn4)c4cc(O)cc(O)c4-c4cc3ccc4O)[C@H](O)c3ccc(c(Cl)c3)Oc3cc2cc(c3O[C@@H]2O[C@H](CO)[C@@H](O)[C@H](O)[C@H]2O[C@H]2C[C@](C)(N)[C@H](O)[C@H](C)O2)Oc2ccc(cc2Cl)[C@H]1O`, the MIC was 13 µM (broth microdilution; ATCC 13883, cation-adjusted Mueller-Hinton broth).
For `CC(=O)N[C@@H](CC(C)C)C(=O)N[C@H]1CSSC[C@@H](C(=O)N2CCC[C@H]2C(N)=O)NC(=O)[C@H]([C@@H](C)O)NC(=O)[C@H](C(C)C)NC(=O)[C@H]([C@@H](C)O)NC(=O)CNC(=O)[C@H](CC(C)C)NC(=O)[C@H](Cc2ccccc2)NC(=O)[C@H](Cc2ccc(O)cc2)NC(=O)[C@H](CC(C)C)NC(=O)[C@H](CCCCN)NC(=O)[C@H](Cc2ccccc2)NC(=O)[C@H](CCCNC(=N)N)NC(=O)[C@H](CCC(N)=O)NC(=O)[C@H](CC(C)C)NC(=O)[C@H](CCCCN)NC(=O)[C@@H]2CCCN2C(=O)[C@H](CCCCN)NC(=O)[C@H](C(C)C)NC(=O)[C@H](CCCCN)NC(=O)[C@H](Cc2ccc(O)cc2)NC(=O)[C@H]([C@@H](C)O)NC1=O`, the MIC was 5 to 10 µM (broth dilution; CGMCC strain; 24 h).
For `CN[C@H](CC(C)C)C(=O)N[C@H]1C(=O)N[C@@H](CC(N)=O)C(=O)N[C@H]2C(=O)N[C@H]3C(=O)N[C@H](C(=O)N[C@H](C(=O)N[C@@H](CCCNC(=N)N)C(N)=O)c4cc(O)cc(O)c4-c4cc3ccc4O)[C@H](O)c3ccc(c(Cl)c3)Oc3cc2cc(c3O[C@@H]2O[C@H](CO)[C@@H](O)[C@H](O)[C@H]2O[C@H]2C[C@](C)(NCc3ccc(OCc4cn(CC(=O)N[C@H](C(=O)N[C@@H](CCN)C(=O)N[C@H]5CCNC(=O)[C@H]([C@@H](C)O)NC(=O)[C@H](CCN)NC(=O)[C@H](CCN)NC(=O)[C@H](CC(C)C)NC(=O)[C@@H](CC(C)C)NC(=O)[C@H](CCN)NC5=O)[C@@H](C)O)nn4)c(OC)c3)[C@H](O)[C@H](C)O2)Oc2ccc(cc2Cl)[C@H]1O`, the MIC was 11 µM (broth microdilution; ATCC 13883, cation-adjusted Mueller-Hinton broth).
For `CCCCCCCC(=O)N[C@@H](CCN)C(=O)N[C@H](C(=O)N[C@@H](CCN)C(=O)N[C@H]1CCNC(=O)[C@H]([C@@H](C)O)NC(=O)[C@H](CCN)NC(=O)[C@H](CCN)NC(=O)[C@H](Cc2cccc(F)c2)NC(=O)[C@@H](CC(C)C)NC(=O)[C@H](CCN)NC1=O)[C@@H](C)O`, the MIC was 0.25 to 0.5 µg/mL (broth microdilution; PAO1, colistin-susceptible).
For `CN[C@H](CC(C)C)C(=O)N[C@H]1C(=O)N[C@@H](CC(N)=O)C(=O)N[C@H]2C(=O)N[C@H]3C(=O)N[C@H](C(=O)N[C@H](C(=O)NCC(N)=O)c4cc(O)cc(O)c4-c4cc3ccc4O)[C@H](O)c3ccc(c(Cl)c3)Oc3cc2cc(c3O[C@@H]2O[C@H](CO)[C@@H](O)[C@H](O)[C@H]2O[C@H]2C[C@](C)(NCc3ccc(OCc4cn(CC(=O)N[C@H](C(=O)N[C@@H](CCN)C(=O)N[C@H]5CCNC(=O)[C@H]([C@@H](C)O)NC(=O)[C@H](CCN)NC(=O)[C@H](CCN)NC(=O)[C@H](CC(C)C)NC(=O)[C@@H](CC(C)C)NC(=O)[C@H](CCN)NC5=O)[C@@H](C)O)nn4)c(OC)c3)[C@H](O)[C@H](C)O2)Oc2ccc(cc2Cl)[C@H]1O`, the MIC was 3 µM (broth microdilution; ATCC 35218, cation-adjusted Mueller-Hinton broth).
For `N=C(N)NCCC[C@@H]1NC(=O)[C@H](CCCNC(=N)N)NC(=O)[C@@H](CCCNC(=N)N)NC(=O)[C@H](C(c2ccccc2)c2ccccc2)NC(=O)[C@H](C(c2ccccc2)c2ccccc2)NC(=O)[C@H](C(c2ccccc2)c2ccccc2)NC(=O)[C@H](CCCNC(=N)N)NC1=O`, the MIC was 32 µg/mL (1188712, multidrug-resistant).
For `CC(C)C[C@H](NC(=O)[C@H](CC(C)C)NC(=O)[C@H](CCCCN)NC(=O)[C@H](Cc1ccccc1)NC(=O)[C@@H](NC(=O)[C@H](CCCNC(=N)N)NC(=O)[C@H](CCCCN)NC(=O)[C@H](Cc1c[nH]c2ccccc12)NC(=O)[C@@H](NC(=O)[C@@H](N)CCCNC(=N)N)C(C)C)C(C)C)C(=O)N[C@@H](CCCCN)C(=O)N[C@@H](CCCNC(=N)N)C(=O)N[C@@H](Cc1ccc(O)cc1)C(=O)N[C@@H](Cc1c[nH]c2ccccc12)C(=O)N[C@@H](CCCNC(=N)N)C(N)=O`, the MIC was 15 µg/mL (broth microdilution; 10145).
With `CCn1c(-c2ccc(-c3ccc(OC)cc3)cc2)c(-c2ccc(-c3ccc(OC)cc3)cc2)n(CC)c1=[Se]` the MIC was greater than 40 µM (broth microdilution; carbapenem-resistant BAA-2108; 24 h).
`CC[C@H](C)[C@H](NC(=O)CN)C(=O)NCC(=O)N[C@@H](C)C(=O)N[C@H](C(=O)N[C@@H](CC(C)C)C(=O)N[C@@H](CCCCN)C(=O)N[C@H](C(=O)N[C@@H](CC(C)C)C(=O)N[C@H](C(=O)N[C@H](C(=O)NCC(=O)N[C@@H](CC(C)C)C(=O)N1CCC[C@H]1C(=O)N[C@@H](C)C(=O)N[C@@H](CC(C)C)C(=O)N[C@H](C(=O)N[C@@H](CO)C(=O)N[C@@H](Cc1c[nH]c2ccccc12)C(=O)N[C@H](C(=O)N[C@@H](CCCCN)C(=O)N[C@@H](CCCNC(=N)N)C(=O)N[C@@H](CCCCN)C(=O)N[C@@H](CCCNC(=N)N)C(=O)N[C@@H](CCC(N)=O)C(=O)N[C@@H](CCC(N)=O)C(N)=O)[C@@H](C)CC)[C@@H](C)CC)[C@@H](C)O)[C@@H](C)O)C(C)C)C(C)C` has an MIC of 2 µM (broth microdilution; 4007 resistant; 18 h, 37 °C).
`CC[C@H](C)[C@H](NC(=O)[C@@H](CCCNC(=N)N)NC(=O)[C@H](CCCNC(=N)N)NC(=O)[C@H](CC(C)C)NC(=O)[C@H](Cc1c[nH]c2ccccc12)NC(=O)[C@H](CCCNC(=N)N)NC(=O)[C@@H]1CCCN1C(=O)[C@H](CCCNC(=N)N)NC(=O)[C@@H]1CCCN1C(=O)[C@H](CC(C)C)NC(=O)[C@H](Cc1ccc(O)cc1)NC(=O)[C@@H]1CCCN1C(=O)[C@@H]1CCCN1C(=O)[C@H](CCCCN)NC(=O)[C@H](CC(=O)O)NC(=O)[C@@H](N)C(C)C)C(=O)N[C@@H](Cc1ccc(O)cc1)C(=O)N[C@@H](CC(N)=O)C(=O)N[C@H](CCCNC(=N)N)C(N)=O` gave an MIC of 128 µg/mL (broth microdilution; DSM 1117; 18 h, 37 °C, 25% MHB2).
`CN[C@H](CC(C)C)C(=O)N[C@H]1C(=O)N[C@@H](CC(N)=O)C(=O)N[C@H]2C(=O)N[C@H]3C(=O)N[C@H](C(=O)N[C@H](C(=O)O)c4cc(O)cc(O)c4-c4cc3ccc4O)[C@H](O)c3ccc(c(Cl)c3)Oc3cc2cc(c3O[C@@H]2O[C@H](CO)[C@@H](O)[C@H](O)[C@H]2O[C@H]2C[C@](C)(NCc3ccc(OCc4cn(CCCCC(=O)N[C@H](C(=O)N[C@@H](CCN)C(=O)N[C@H]5CCNC(=O)[C@H]([C@@H](C)O)NC(=O)[C@H](CCN)NC(=O)[C@H](CCN)NC(=O)[C@H](CC(C)C)NC(=O)[C@@H](CC(C)C)NC(=O)[C@H](CCN)NC5=O)[C@@H](C)O)nn4)c(OC)c3)[C@H](O)[C@H](C)O2)Oc2ccc(cc2Cl)[C@H]1O` has an MIC of 6 µM (broth microdilution; ATCC 25922, cation-adjusted Mueller-Hinton broth).
The MIC of `CC[C@H](C)[C@H](NC(=O)[C@@H](CCCNC(=N)N)NC(=O)[C@H](CCCNC(=N)N)NC(=O)[C@@H]1CCCN1C(=O)[C@@H]1CCCN1C(=O)[C@H](CCCNC(=N)N)NC(=O)[C@@H]1CCCN1C(=O)[C@H](CCCNC(=N)N)NC(=O)[C@@H]1CCCN1C(=O)[C@H](CCSC)NC(=O)[C@H](Cc1ccc(O)cc1)NC(=O)[C@@H]1CCCN1C(=O)[C@@H]1CCCN1C(=O)[C@H](CCCCN)NC(=O)[C@H](CC(=O)O)NC(=O)[C@@H](N)C(C)C)C(=O)N[C@@H](Cc1ccc(O)cc1)C(=O)N[C@@H](CC(N)=O)C(=O)N[C@H](CCCNC(=N)N)C(N)=O` is reported as 128 µg/mL (broth microdilution; DSM 1117; 18 h, 37 °C, 25% MHB2).
With `CN[C@H](CC(C)C)C(=O)N[C@H]1C(=O)N[C@@H](CC(N)=O)C(=O)N[C@H]2C(=O)N[C@H]3C(=O)N[C@H](C(=O)N[C@H](C(=O)NCc4cn(CC(=O)N[C@H](C(=O)N[C@@H](CCN)C(=O)N[C@H]5CCNC(=O)[C@H]([C@@H](C)O)NC(=O)[C@H](CCN)NC(=O)[C@H](CCN)NC(=O)[C@H](CC(C)C)NC(=O)[C@@H](CC(C)C)NC(=O)[C@H](CCN)NC5=O)[C@@H](C)O)nn4)c4cc(O)cc(O)c4-c4cc3ccc4O)[C@H](O)c3ccc(c(Cl)c3)Oc3cc2cc(c3O[C@@H]2O[C@H](CO)[C@@H](O)[C@H](O)[C@H]2O[C@H]2C[C@](C)(N)[C@H](O)[C@H](C)O2)Oc2ccc(cc2Cl)[C@H]1O` the MIC was 6 µM (broth microdilution; ATCC 35218, cation-adjusted Mueller-Hinton broth).
`CC[C@H](C)[C@H](NC(=O)[C@H](Cc1c[nH]c2ccccc12)NC(=O)[C@H](Cc1ccc(O)cc1)NC(=O)[C@H](CCCCN)NC(=O)[C@H](CC(C)C)NC(=O)[C@H](CO)NC(=O)[C@@H](N)Cc1ccccc1)C(=O)N[C@@H](CCCNC(=N)N)C(=O)N[C@@H](Cc1ccc(O)cc1)C(=O)N[C@@H](CCCCN)C(=O)N[C@@H](CCCNC(=N)N)C(=O)N[C@@H](CCC(N)=O)C(=O)NCC(=O)N[C@@H](C)C(=O)N[C@@H](C)C(=O)N[C@@H](CCCNC(=N)N)C(=O)N[C@@H](Cc1ccccc1)C(N)=O` gave an MIC of greater than 100 µM (broth dilution; ATCC 27853).
The MIC of `CC[C@H](C)[C@H](NC(=O)[C@H](Cc1c[nH]c2ccccc12)NC(=O)[C@H](CCCNC(=N)N)NC(=O)[C@@H]1CCCN1C(=O)[C@H](CCCNC(=N)N)NC(=O)[C@@H]1CCCN1C(=O)[C@H](CC(C)C)NC(=O)[C@H](Cc1ccc(O)cc1)NC(=O)[C@@H]1CCCN1C(=O)[C@@H]1CCCN1C(=O)[C@H](CCCCN)NC(=O)[C@H](CC(=O)O)NC(=O)[C@@H](N)C(C)C)C(=O)N[C@@H](CCCNC(=N)N)C(=O)N[C@H](CCCNC(=N)N)C(=O)N[C@H](C(=O)N[C@@H](Cc1ccc(O)cc1)C(=O)N[C@@H](CC(N)=O)C(=O)N[C@H](CCCNC(=N)N)C(N)=O)[C@@H](C)CC` is reported as 128 µg/mL (broth microdilution; DSM 1117; 18 h, 37 °C, 25% MHB2).
`CCCCCCCC(=O)N[C@@H](CCN)C(=O)N[C@H](C(=O)N[C@@H](CCN)C(=O)N[C@H]1CCNC(=O)[C@H]([C@@H](C)O)NC(=O)[C@H](CCN)NC(=O)[C@H](CCN)NC(=O)[C@H](CCC(C)C)NC(=O)[C@@H](Cc2ccccc2)NC(=O)[C@H](CCN)NC1=O)[C@@H](C)O` gave an MIC of 0.5 to 2 µg/mL (broth microdilution; colistin-resistant isolates).

Some of these lines once more:
For `CC(=O)N[C@@H](CC(C)C)C(=O)N[C@H]1CSSC[C@@H](C(=O)N2CCC[C@H]2C(N)=O)NC(=O)[C@H]([C@@H](C)O)NC(=O)[C@H](C(C)C)NC(=O)[C@H]([C@@H](C)O)NC(=O)CNC(=O)[C@H](CC(C)C)NC(=O)[C@H](Cc2ccccc2)NC(=O)[C@H](Cc2ccc(O)cc2)NC(=O)[C@H](CC(C)C)NC(=O)[C@H](CCCCN)NC(=O)[C@H](Cc2ccccc2)NC(=O)[C@H](CCCNC(=N)N)NC(=O)[C@H](CCC(N)=O)NC(=O)[C@H](CC(C)C)NC(=O)[C@H](CCCCN)NC(=O)[C@@H]2CCCN2C(=O)[C@H](CCCCN)NC(=O)[C@H](C(C)C)NC(=O)[C@H](CCCCN)NC(=O)[C@H](Cc2ccc(O)cc2)NC(=O)[C@H]([C@@H](C)O)NC1=O`, the MIC was 5 to 10 µM (broth dilution; CGMCC strain; 24 h).
For `CC(C)C[C@H](NC(=O)[C@H](CC(C)C)NC(=O)[C@H](CCCCN)NC(=O)[C@H](Cc1ccccc1)NC(=O)[C@@H](NC(=O)[C@H](CCCNC(=N)N)NC(=O)[C@H](CCCCN)NC(=O)[C@H](Cc1c[nH]c2ccccc12)NC(=O)[C@@H](NC(=O)[C@@H](N)CCCNC(=N)N)C(C)C)C(C)C)C(=O)N[C@@H](CCCCN)C(=O)N[C@@H](CCCNC(=N)N)C(=O)N[C@@H](Cc1ccc(O)cc1)C(=O)N[C@@H](Cc1c[nH]c2ccccc12)C(=O)N[C@@H](CCCNC(=N)N)C(N)=O`, the MIC was 15 µg/mL (broth microdilution; 10145).
